Measured values from different studies.
Each numbered part is a random draw from the data of one study; scales do not carry over between parts. Substitutions count along the parent as printed.

Study 1
Target: Interferon regulatory factor 5, full length, phosphomimetic (IRF5, Homo sapiens, UniProt Q13568-2, residues 1-514, S451D/S453D/S456D/S462D)
Method: protein-binding microarray
Molecule type: double-stranded DNA, one strand shown
Sample: in vitro
Concentration: 940 nM top
Notes: 60-bp whole probe
Added: salmon DNA 0.4 mg/ml
Relative to: random background probes
Reading: higher = stronger binding
Shared flanks, not repeated: GCCTAGCAC … GTCTTGATTCGCTTGACGCTGCTG
Strand	fitted relative affinity [z-score]
GACGGTATAGGTCTCGGGACGTGCTAG	0.373
GACAGTTTCGGGACTGGGGACGTGCTA	7.69
GACGGTTTCGACTATCGGGTCGTGCTA	9.37
GACCATATCGGGTATCGAGACGTGCTA	0.685
GACGGACTGGGTCTGGGGACGTGCTAG	-0.734
GACCATCTCAGTATCGAGACGTGCTAG	2.02
GACGGAATGGGTTTCGGGACGTGCTAG	3.34
TCATTTTTTTTTTTTTCACTGTGCTAG	1.49
TTAGATATCAGACTGGATGAGTGCTAG	-0.365
TCACCCCTTGCTTTCCAACTGTGCTAG	0.903
GACGATTTCGGCTTTCGAGACGTGCTA	0.908
GGAAAAATGATGTTTTAGGTCGTGCTA	-0.581
GACGGACTGCTTTTCCGGACGTGCTAG	-0.396
TCATTTCTGAATGTCTTACTGTGCTAG	0.548
TTAGTACTGGGGTTTCGATTAGTGCTA	5.39
GTCGGTTTCGGTTCCGGGACGTGCTAG	16.5
GACGATTTCGGGTTTCGAGAGGTGCTA	2.39
TACTTTCTATCTCTGTTTTTGTGCTAG	4.8
TTAGGACTGGGGTTTCGGTTGGTGCTA	5.58

Study 2
Target: ABI1, truncated, D143A, DHFR fusion (Arabidopsis thaliana)
Method: DHFR PCA, deep sequencing
Sample: yeast
Notes: methotrexate growth selection, single substitutions
Added: (+)-ABA 0 µM
Relative to: wild-type fitted maximum
Reading: higher = stronger binding
Starting sequence: PYL1, truncated, DHFR fusion (Arabidopsis thaliana); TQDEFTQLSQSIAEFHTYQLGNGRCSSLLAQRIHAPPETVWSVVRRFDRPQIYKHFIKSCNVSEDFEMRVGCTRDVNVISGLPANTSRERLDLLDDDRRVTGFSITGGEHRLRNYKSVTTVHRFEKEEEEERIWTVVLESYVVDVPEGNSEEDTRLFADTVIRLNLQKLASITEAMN; partner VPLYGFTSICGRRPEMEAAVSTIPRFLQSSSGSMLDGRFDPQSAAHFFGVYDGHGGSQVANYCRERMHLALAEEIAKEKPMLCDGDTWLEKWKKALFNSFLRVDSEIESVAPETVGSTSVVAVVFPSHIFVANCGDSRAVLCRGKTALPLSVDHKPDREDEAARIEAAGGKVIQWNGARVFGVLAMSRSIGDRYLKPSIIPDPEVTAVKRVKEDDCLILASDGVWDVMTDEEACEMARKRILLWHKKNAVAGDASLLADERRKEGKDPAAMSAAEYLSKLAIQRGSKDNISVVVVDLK
Change	relative binding score [%]
K168V	-7.14
E64W	-3.18
V43P	-5.56
I52Q	7.06
I57K	-1.89
L94N	-3.72
V145Q	-12.6
T1P	25
Q19G	4.72
R163A	28.7
V44D	-2.67
S117T	0.213
E14M	3.2
T173N	0.45
K126N	42.5
H55V	37.1
Q7D	20.3
S9C	10.6
D96F	-7.15
D48A	-2.36
I79Q	0.131
F124G	10.8
R113N	11.9
H16L	0.587
V143M	-0.337

Study 3
Target: Sal-like protein 4, full length isoform B (SALL4, Homo sapiens, UniProt Q9UJQ4-2, residues 1-616)
Method: universal PBM
Molecule type: double-stranded DNA, one strand shown
Sample: in vitro
Concentration: not given
Notes: 8-mer, flanks averaged, mean of replicates
Reading: higher = stronger binding
Strand	E-score
ATCATTAA	0.304
AGTTGTGC	-0.169
ATGCGTCA	0.0483
GCCGTCTA	-0.202
AGCAAAGA	0.0568
ACGGACAA	-0.0151
ATGGGTCG	-0.232
CTGCGGGC	-0.341
CCGCCCCG	-0.25
CTCACTCC	-0.197
GTACTCTA	0.0347
CCACCTCA	-0.139
ATGCGGGC	-0.207
CATAGTGA	0.239
AGGATGGA	-0.055
CGTCATGC	-0.0938
CGATGTAG	-0.0115
AGGGTTGA	-0.0727
GGTTGAGA	-0.0956
TAACATCA	0.247
AATTGTCT	0.185
GATGAGGC	-0.143
AGAGTCCT	-0.168

Study 4
Target: Histone acetyltransferase KAT6A, winged helix 2, GST fusion (KAT6A, Homo sapiens, UniProt Q92794, residues 85-181)
Method: protein binding microarray
Molecule type: double-stranded DNA, one strand shown
Sample: in vitro
Concentration: not given
Notes: 8-mer, flanks averaged, mean of 2 arrays, mostly near background
Relative to: not given
Reading: higher = stronger binding
Target sequence (chain): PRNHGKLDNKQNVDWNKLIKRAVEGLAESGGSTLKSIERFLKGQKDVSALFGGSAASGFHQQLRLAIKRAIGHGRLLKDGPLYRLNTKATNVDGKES
Strand	E-score
CCTTATCA	-0.0308
AATCATTG	-0.0994
AGACTCAG	-0.0787
TGTGCCAA	0.0836
TAGGAGGA	-0.0478
CAGAATCC	-0.00213
AAACTCGT	-0.036
GTCCGGCA	0.069
GCGACGGA	0.0324
TGTCACAA	-0.034
AGGTCTTC	-0.00615
ATGGTGGA	-0.146
ATGTGATC	-0.0128
CGTAAGCA	-0.0566
AGTGCGGC	0.0714
AAAGTGTG	-0.194
AAAGGAAT	-0.0917
CGCATAGA	-0.00798
AGCTATTA	-0.134

Study 5
Cell line: yeast with cyclin D1-Cln2 chimera
Read-out: cell growth
Action: binder
Method: competitive growth deep sequencing
Molecule type: peptide
Concentration: concentration not given
Notes: peptide tiling library
Reading: direction not given
Molecule	growth enrichment score
VRDLSYRLVFLACCVA	-0.679
VLPGGVPSPGASLTSM	1.18
GAEELEDLVHFSVSEL	1.45
PQWPCGKHKRVLIFAS	-1.18
SGYLTDENEVGFRG	1.19
RNRGPKLNAMLRLGVL	-1.89
DGCSPIKNWSPMRL	1.37
QNPCGSKACRRLFGPV	1.36
AEHPKPSACRNLFGPV	1.14
KDDDKAWEYEERDRRS	1.32
TSPGPVLLHPSPSTTQ	1.33
NNIRKALSFDNRGEEH	-0.18
TRRRLFVENDSP	0.183
NFETPEAETPIRSPFK	1.29
FQDSGYNELKSCSFDN	1.26
VLVRTSACRSLFGPVD	0.188
LENIEPLQVSFAVLSS	1.1

Further values, each from its own experiment
Substance	target	test	system	setting	scale	measurement	value
PhoQ, residues 284 288 289 292 302 303 NLGVHL	PhoP, residues 12 14 15 18 19 SMASL (Escherichia coli, UniProt P23836)	Sort-seq, item: YFP reporter	E. coli	PhoQ-PhoP variant library, added: 10 µM Mg2+	relative to: high Mg2+ state, higher = stronger signaling	fold induction	2.51

For quick reference, copied from above (study 2):
Change	relative binding score [%]
R163A	28.7
V44D	-2.67
S117T	0.213
E14M	3.2
T173N	0.45
K126N	42.5
H55V	37.1
Q7D	20.3
S9C	10.6
